Measurements collected from several papers.
Every numbered part comes from another study and shows a few of its results, in no order. Positions count from the first letter of the parent shown.

Block 1
Target: RNA binding protein fox-1 homolog 2, RRM domain, GST-SBP tag (RBFOX2, Homo sapiens, UniProt O43251-10, residues 100-194)
Technique: RNA Bind-n-Seq
Form: RNA
Medium: in vitro
Tested at: 365 nM
Setting: natural RNA segment, single round, ends assumed
Reference: no-protein control
Reading: higher = stronger binding
All sequences stand within: GGGAGUUCUACAGUCCGACGAUC … UGGAAUUCUCGGGUGCCAA
Residues (chain): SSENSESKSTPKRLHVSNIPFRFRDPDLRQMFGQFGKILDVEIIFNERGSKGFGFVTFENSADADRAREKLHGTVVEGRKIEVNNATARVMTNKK
Sequence | RBNS enrichment (R)
CUUGUAACAAUUAAAAUUGCUUUUCUUCCAUGUUUCUCUUGGCAGAGAGAAAUGCCAUCAUGCUUACUGCUCUUUUGGAUUCUUCAUGCAGUGGCUUCCCAUUUGCUCUG | 0.883
UAGGUUCAGAACAGUAUUCUCAGUACAAGCUUCGCUUUUCUAAGAAGUACACAUUUGGCCCAAAUUCACCGGGAUAAGUGAGAACAGCCAGAAGCAUAAAAUGUGAUGAA | 0.795
CAGAAGGCACCAGACCAGCCCAGCAGCAAAUGCUCAUCUUUGGGAACAUAGGAAGCUUUACCUUGGGGAAGGUAUGCUUUACAAAUGUCCAGUGUAAUGAAUGUUUGGAA | 0.559
UGACCUCAUCUUCCUUCUGGGUUUUGAGAACAGUGGGUGUGAAUCAGUGCUUGGCAAUCGUCCUUCUUACAGCAGUAAGCAAAAAUUAGCAAGGAACGUGUCCGCAUGGC | 1
UAGAUUAUUUUCAGAUUUUGGAAUGUUUGCAUAUACAUAAUGAGAUAUUUUGGGAAUAGGACCCGAGCCUAAACACAAAAUUCAUUGAUGUGUCAGUUACACCUUAUCCA | 0.363
UAGAAAGACACUUAUAUGACACUCAGGUGUCUGCUAUUUAUCUUGAUUUCUAAAUGGUUCUGGAUUCCAUGUUUUCUCUAUUCGUUUAGAAGAAGUUGGAGGAUGGUGCU | 0.274
GGAGCGGGACUGCAACAAGCAAUGCCAGAUAACUGAGAAAUCAUGUUCUUUGUGGACUAUUUCAGACAACCAGGUUCCGACAGUCCAGCCCAGAACUUUUCCUUCUCAUU | 0.337
AGGUCCUCAUCUCCGUCUUGCAGGUGUUCUGAACUCUCCUUUGGCUAGUCUCUGAUUUUUGAGUCUGGCGGAGGCCUCUUGACCAUGCUGCCCAUGCUGUCUACUGUGCC | 0.29
UUCAGUUCCUUAGUCGUGUCUACUUACCUAGCAGUUUAGAAACUGUCAGUCAUGUAACUGGCAAGGAUCACAGCCCGGUUGGGUGGCAUUCUGUGCCUCUGGCUUGGCUG | 0.212
GCCCUCAGCUCAGUUUUUGGCUCUGUUAUGGAGCCUUAGUACCCACCCCGUCUGUGUCCCCCAUGAAGGCAGCUGAGCUUUCAGAGCUGGGUUCAAAAAAAAAAAUUCCA | 0.364
AGUUACGUCAAACAUACAUCUCAAUAUUUCUUAAGAAGCAAACGGGGGCACCAGUCUUGGCUUUUAGGAAGCUCUGUUUAACUUACACAUAAGUUCUUAAGAUGUGUUGG | 0.437
UAAUUGGAGGAAAUGAAUGCUGAUUGUAACGGAGUUAAUUUUAUUGAUAAUAAAUUAUACACUAUGAAACCGCCAUUGGGCUACUGUAGAUUUGUAUCCUUGAUGAAUCU | 10.3

Block 2
Target: Sal-like protein 4, full length isoform B (SALL4, Homo sapiens, UniProt Q9UJQ4-2, residues 1-616)
Technique: universal PBM
Form: double-stranded DNA, one strand shown
Medium: in vitro
Tested at: not given
Setting: 8-mer, flanks averaged, mean of replicates
Reading: higher = stronger binding
Residues (chain): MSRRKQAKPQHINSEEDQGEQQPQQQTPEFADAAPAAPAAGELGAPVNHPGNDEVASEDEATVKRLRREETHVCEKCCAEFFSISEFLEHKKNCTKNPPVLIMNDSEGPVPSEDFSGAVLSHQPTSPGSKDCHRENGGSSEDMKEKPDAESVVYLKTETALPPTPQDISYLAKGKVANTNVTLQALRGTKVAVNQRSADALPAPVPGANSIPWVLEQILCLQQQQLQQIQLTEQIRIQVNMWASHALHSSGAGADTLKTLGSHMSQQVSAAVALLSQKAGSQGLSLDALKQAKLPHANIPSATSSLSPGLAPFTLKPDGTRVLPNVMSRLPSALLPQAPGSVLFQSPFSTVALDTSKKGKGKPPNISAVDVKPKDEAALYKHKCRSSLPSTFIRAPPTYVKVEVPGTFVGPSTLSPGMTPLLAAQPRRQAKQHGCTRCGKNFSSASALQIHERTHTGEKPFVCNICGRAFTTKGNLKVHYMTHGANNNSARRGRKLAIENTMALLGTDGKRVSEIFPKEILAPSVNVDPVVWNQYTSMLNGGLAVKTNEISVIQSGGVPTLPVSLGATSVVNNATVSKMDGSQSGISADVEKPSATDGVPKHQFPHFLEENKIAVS
Sequence | E-score
ACAATTTG | 0.129
ATTTGACA | 0.244
CTCTCGGC | -0.245
GAAGCCCA | -0.151
TCAGCTCA | -0.161
ATATCCGA | 0.203
GAGGCAAC | -0.183
ATATCGCA | 0.151
CCGAAAAG | 0.0289
AACTATGG | 0.111
AATTGAAG | 0.25
TCTTCCAA | 0.146
AGCCTCTG | -0.158
AACTACCA | 0.104
CAAAGCTA | 0.161
CGACAGAG | -0.259
GGACTACA | 0.0505
GTCTTACA | 0.113
AGAGAGCG | -0.0609
ATCTCCCA | -0.0611

Block 3
Target: CCNA1, cyclin fold, Cln2 fusion (human)
Technique: yeast growth competition, sequencing
Medium: yeast
Setting: weak parent motif
Reference: not given
Reading: higher = stronger binding
Parent: MICAL3 docking peptide (human); LQLRRQLSFSEDS
Substitution | normalised enrichment score
S10A | 0.35
Q2H | 0.198
L7G | 0.335
L3E | -0.108
L7A | 0.0989
Q6F | -0.4
L7W | -0.048
Q6R | 0.949
F9K | 0.31
E11I | -0.441
R4W | -0.313
R5I | 0.352
R4P | -0.0138
R5Q | 0.143
Q6W | -0.289
D12Y | 0.111
S10M | 0.259
L7N | -0.103
R4K | 0.179
Q2M | 0.107
D12R | 0.298
L7P | 0.109
D12C | 0.395
L3F | 0.229

Block 4
Target: Fragile X messenger ribonucleoprotein 1, C-terminal low-complexity region (Fmr1, Mus musculus, UniProt P35922)
Technique: RNA Bind-n-Seq
Form: RNA
Medium: in vitro
Tested at: 200 nM
Setting: whole 134-nt RNA, ends assumed
Together with: 150 mM KCl
Reference: input library
Reading: higher = stronger binding
All sequences stand within: GGGAGUUCUACAGUCCGACGAUC … UGGAAUUCUCGGGUGUCAAGG
Sequence | log2 enrichment
UGGCCCUGGUGGCAUGCGGGGAGGAAGAGGUGACCUCAUGGAUCGUGGUGGUCCCGGUGGAAUGUUCAGAGGUGGCCGUGGUGGAGACAG | -0.0186
UCAAGUCCUGUGCUACACAUCGUAUGUACCGAAUCGGUUUGGGUUUGGGUUUGGGAAAGUAUUAUGUUACGCCGUUCGGAUCUGCACUUC | -0.404
CUCAAGUCCUGUGCUACACAUCGUAUGUACCGAAUCGGGCGGGGCGGGGCGGGAAAGUAUUAUGUUACGCCGUUCGGAUCUGCACUUCCA | 1.41
UGGCCCUGGUGCCAUGCGGGGAGGAAGAGGUGGCCUCAUGGAUCGUGGUGGUCCCGGUGGAAUGUUCAGAGGUGGCCGUGGUGGAGACAG | 0.217
AGUCCUGUGCUACACAUCGUAUGUACCGAAUCGGGAAAAAGGGUGGGUUUUUUUGGGAAAGUAUUAUGUUACGCCGUUCGGAUCUGCACU | 0.627
CACAGACAACACGCACCCACACAGACACAGAGGGAAGGGGUUGGGAUGGGGACAGGGUGCACAGCAGGGCGGGGUAGGACCCCAGCCACU | 1.09
AGUCCUGUGCUACACAUCGUAUGUACCGAAUCGGAAAAAAAGGAAAAAAAGGUUUGGAAAGUAUUAUGUUACGCCGUUCGGAUCUGCACU | -1.56
AACACUCAAACCACCAUCAAGCUUUUCCAGGAAUGCUGUCCUCAUUCCACUGACAGAGUUGUUCUUAUUGGAGGAAAACCCGAUAGGGUU | 0.0686
UGGCCCUGGUGGCAUGCGGGGAGGAAGAGGUGGCUUCAUGGAUCGUGGUGGUCCCGGUGGAAUGUUCAGAGGUGGCCGUGGUGGAGACAG | 0.273
GUCCUGUGCUACACAUCGUAUGUACCGAAUCAAACCCCCCCAAAUUUAAAUUUUUAAAAAAGUAUUAUGUUACGCCGUUCGGAUCUGCAC | 0.429
UGGUUUGAGUCCAGCCAAUGACACUGGAGCCAAAAAGAAGAAAAAGAAACAAAAAAAGAAGAAAGAAAAAGGCAGUGAGACAGAUUCAGC | 0.224
AGUCCUGUGCUACACAUCGUAUGUACCGAAUCGGGGAAAAAAAGGGGUGGGGUGGGGAAAGUAUUAUGUUACGCCGUUCGGAUCUGCACU | 0.766
UCAAGUCCUGUGCUACACAUCGUAUGUACCGAAUCGGGGCCGGGCCGGGCCGGGGAAAGUAUUAUGUUACGCCGUUCGGAUCUGCACUUC | 0.372
CAAGUCCUGUGCUACACAUCGUAUGUACCGAAUCGGAAAAAGGAGGUUUUUUUGGAAAGUAUUAUGUUACGCCGUUCGGAUCUGCACUUC | -0.717

Block 5
Target: Interferon regulatory factor 3, full length, phosphomimetic (IRF3, Homo sapiens, UniProt Q14653, residues 1-427, S386D/S396D/S398D/S402D/T404D/S405D)
UniProt Q14653, sequence (whole entry, unmodified, looked up): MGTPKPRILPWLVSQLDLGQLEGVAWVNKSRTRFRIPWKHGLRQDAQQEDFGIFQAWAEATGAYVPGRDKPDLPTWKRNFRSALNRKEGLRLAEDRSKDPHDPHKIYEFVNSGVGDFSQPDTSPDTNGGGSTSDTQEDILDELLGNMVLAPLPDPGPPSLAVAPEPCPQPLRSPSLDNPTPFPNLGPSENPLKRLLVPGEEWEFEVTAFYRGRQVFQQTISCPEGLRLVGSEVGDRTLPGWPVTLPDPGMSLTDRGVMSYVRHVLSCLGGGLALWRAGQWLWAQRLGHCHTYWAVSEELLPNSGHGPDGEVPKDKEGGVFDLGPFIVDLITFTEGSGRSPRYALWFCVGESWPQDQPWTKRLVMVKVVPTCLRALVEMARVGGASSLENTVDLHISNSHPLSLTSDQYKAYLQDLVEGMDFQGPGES
Technique: protein-binding microarray
Form: double-stranded DNA, one strand shown
Medium: in vitro
Tested at: 2540 nM top
Setting: 60-bp whole probe
Together with: salmon DNA 0.4 mg/ml
Reference: random background probes
Reading: higher = stronger binding
All sequences stand within: GCCTAGCAC … GTCTTGATTCGCTTGACGCTGCTG
Sequence | fitted relative affinity [z-score]
GACGAACTGGGGACTGGCGACGTGCTA | -0.683
GACGGTATCGATTATCGGGACGTGCTA | 2.15
GTCGGTTTCGACACTGGGGACGTGCTA | 4.62
CATTGCTTGTGTTTATTGTGGTGCTAG | -0.00676
TTAGGACTGGACTATCGGTTGGTGCTA | -0.538
TCAGTTTTCAGCTGTTTTACTGTGCTA | 1.75
TCAACACTCTTCTTTTGCACTGTGCTA | 0.357
TAAGATTTCAGACTGGATTAGTGCTAG | 0.576
GACCGTATCGGTCTCGGGACGTGCTAG | 4.86
GACGGACTGGACTATCGGGATGTGCTA | -0.651
GACGGACTGGGTATCGGGACGTGCTAG | -0.28
TTAGGTAACGGACTGGGTTAGTGCTAG | -0.25
TCTACAATGGCTTTGCCTTTGTGCTAG | -0.71
TCACCTTTCAATCCTAGACTGTGCTAG | 2.67
TAAGGACTGGGACTGGGTTAGTGCTAG | -1.01
TTACGTATCCTTCTCCTTTAGTGCTAG | 6.18
CCTAGTTTCATTCCTGATCTGTGCTAG | 3.95
TGGTGTCTCTGGCCTGGGTCGGTGCTA | -1.16
GACAATATCGGGTATCGAGACGTGCTA | 0.241
TTAGGTCTCCTACTGCTGTAGTGCTAG | 0.784
CAATTCCTGAAATCTCTTTCCGTGCTA | 1.79
ACTAGATAAGACAAAGTGATGTGCTAG | -0.159
GACGATTTCCTTATCCTGACGTGCTAG | 4.63
GACGAATTCGGGTATCGAGACGTGCTA | 0.815
TCATCTCTAGAAATTCCCACTGTGCTA | 0.675

Repeated from above (block 2):
Sequence | E-score
TCAGCTCA | -0.161
ATATCCGA | 0.203
GAGGCAAC | -0.183
ATATCGCA | 0.151
CCGAAAAG | 0.0289
AACTATGG | 0.111
AATTGAAG | 0.25
TCTTCCAA | 0.146
AGCCTCTG | -0.158
AACTACCA | 0.104
CAAAGCTA | 0.161
CGACAGAG | -0.259
GGACTACA | 0.0505
GTCTTACA | 0.113
